# Literature values that unrelated publications cite.
# Compare with care: the assays were run in different laboratories. ± marks the error that the study gave.
SMILES,target or system,test,system,conditions,scale,quantity,result
COc1cccc(-c2cc(F)ccc2[C@H]2Cc3nc(N)nc(C)c3C(=O)N2)n1,Hsp90α,,,,,IC50,0.6 nM
O=C(C=C(O)C(F)(F)C(F)(F)F)c1ccc(NCC(F)(F)F)nc1,Plasmodium falciparum formate-nitrite transporter,"L-lactate transport, inhibitor, radiolabelled uptake",yeast,,,IC50,210 ± 20 nM
O=C(CCCOc1ccc(Cl)cc1)N[C@H]1CCOC1=O,"RhlR, Pseudomonas aeruginosa","reporter gene, antagonist, rhlA-gfp reporter",,1 mM,,inhibition,50%
CS(=O)(=O)c1ccc(Nc2nc(OCC3CCCCC3)c3nc[nH]c3n2)cc1,MCL1,experimental benchmark set,,,,binding free energy,-7.92 kcal/mol
C=Cc1c(C)c2cc3nc(c(CC(=O)[O-])c4[n-]c(cc5nc(cc1[n-]2)C(C)=C5CC)c(C)c4C(=O)[O-])C(CCC(=O)[O-])C3C.[Cu+2].[Na+].[Na+].[Na+] (stereo not drawn),Nrf2,activator,,,,concentration for activation,5 to 15 µM
c1ccc2c(c1)CCCNC2c1c[nH]c2ncccc12 (stereo not drawn),P-glycoprotein (ABCB1),inhibitor,,20 µM,"baseline: untreated cells, higher = stronger inhibition",fluorescence activity ratio,3.1
Cn1nnnc1Sc1ncnc2scc(-c3cccc(S(C)(=O)=O)c3)c12,PI5P4Kγ,,,10 µM,,remaining activity,4.9%
Cc1[nH]c(=O)c(CNC(=O)c2cc(Cl)c3c(c2C)O[C@@](C)([C@H]2CC[C@H](N(C)C)CC2)O3)c(C)c1O,EZH1,"enzyme activity, inhibitor",,,baseline: IC50 compound over valemetostat,potency ratio,~24 fold
C/C(N)=N/C(=N\S(=O)(=O)c1ccc(C(F)(F)F)cc1)N1C[C@H](c2ccccc2)C(c2ccc(Cl)cc2)=N1,inducible nitric oxide synthase,enzyme activity,,,,concentration for inhibition,1 µM
O=C(CCCOc1cccc(Br)c1)N[C@H]1CCSC1=O,RhlR,"rhlA-gfp reporter, partial agonist",,20 µM,,activation,~75%
O=C(C=C(O)C(F)(F)C(F)(F)F)c1cccc(O)c1,Plasmodium falciparum formate-nitrite transporter,"L-lactate transport, inhibitor, radiolabelled uptake",yeast,,,IC50,160 ± 10 nM
CSCC[C@H](NC(=O)[C@H](CC(C)C)NC(=O)[C@H](CC(C)C)NC(=O)CNC(=O)[C@H](C)NC(=O)[C@H](C)NC(=O)[C@H](CCCNC(=N)N)NC(=O)CNC(=O)[C@@H](NC(=O)[C@@H](NC(=O)[C@H](Cc1c[nH]cn1)NC(=O)[C@H](Cc1ccc(O)cc1)NC(=O)[C@H](CCCNC(=N)N)NC(=O)[C@@H]1CCCN1C(=O)[C@H](CO)NC(=O)[C@H](C)NC(=O)[C@@H](NC(=O)[C@H](Cc1c[nH]cn1)NC(=O)[C@H](CCCCN)NC(=O)[C@H](Cc1ccc(O)cc1)NC(=O)[C@@H](N)Cc1c[nH]c2ccccc12)C(C)C)[C@@H](C)O)C(C)C)C(=O)NCC(=O)N[C@@H](CC(C)C)C(N)=O,NPBWR1,,,literature value,,EC80,20 nM
COc1ccc(Nc2nc(Nc3ccc(OCC[18F])cc3)ncc2Br)cc1,,,"S180 tumour-bearing mice, bone","intravenous, 15 min",,tissue uptake,1.95 ± 0.25 %ID/g
O=c1ccc(OCCCN2CCCCC2)nn1-c1ccc(Cl)c(Cl)c1,adrenergic α2 receptor,,,1.0 µM,,inhibition,10.6 ± 0.9%
O=C(C=C(O)C(F)(F)C(F)(F)F)c1cccs1,Plasmodium falciparum formate-nitrite transporter,"L-lactate transport, inhibitor, radiolabelled uptake",yeast,,,IC50,110 ± 10 nM
COc1cc2c(cc1OC)C(c1c[nH]c3ccccc13)NCC2 (stereo not drawn),P-glycoprotein (ABCB1),inhibitor,,2 µM,"baseline: untreated cells, higher = stronger inhibition",fluorescence activity ratio,2.34
CN(CCN)Cc1ccccc1Sc1ccccc1Cl,G9a,enzyme activity,,100 µM,,inhibition,~40%
CC(C)Nc1ccc(C(=O)C=C(O)C(F)(F)C(F)(F)F)cn1,Plasmodium falciparum formate-nitrite transporter,"L-lactate transport, inhibitor, radiolabelled uptake",yeast,,,IC50,150 ± 10 nM
CCCCCCCCCC(=O)CC(=O)Nc1ccccc1O,RhlR Pseudomonas aeruginosa,"rhlI-gfp(LVA) reporter, inhibitor","Pseudomonas aeruginosa, PAO-JP2",10 µM,,inhibition,70%
CCC(=O)Nc1ccc(C(=O)C=C(O)C(F)(F)C(F)(F)F)cn1,Plasmodium falciparum formate-nitrite transporter,"L-lactate transport, inhibitor, radiolabelled uptake",yeast,,,IC50,250 ± 20 nM
CC(=O)c1cc(-c2cccc3nccn23)c2cc(N3CCOCC3)ccn12,BRD9 bromodomain,thermal shift,,,higher = stronger binding,ΔTm,4.5 °C
COCCCNc1ccc(C(=O)C=C(O)C(F)(F)C(F)(F)F)cn1,Plasmodium falciparum formate-nitrite transporter (PfFNT),"L-lactate transport, radiolabelled uptake",yeast,,,IC50,160 nM
c1ccc2c(c1)CCCNC2c1c[nH]c2ccccc12 (stereo not drawn),P-glycoprotein (ABCB1),inhibitor,,20 µM,"baseline: untreated cells, higher = stronger inhibition",fluorescence activity ratio,2.6
O=C(C=C(O)C(F)(F)C(F)(F)F)c1ccsc1,Plasmodium falciparum formate-nitrite transporter,"L-lactate transport, inhibitor, radiolabelled uptake",yeast,,,IC50,150 ± 10 nM
CS(=O)(=O)Nc1ccc(-c2cncc(-c3cccc4cc[nH]c34)c2)cc1,RIPK2,,,1 µM,,remaining activity,< 30%
C[S+]([O-])c1ccc(Nc2nc(OCC3CCCCC3)c3nc[nH]c3n2)cc1 (stereo not drawn),TYK2,,,benchmark set,,binding free energy,-10.9 kcal/mol
O=C(C=C(O)C(F)(F)c1ccccc1)c1cccnc1,Plasmodium falciparum formate-nitrite transporter,"L-lactate transport, inhibitor, radiolabelled uptake",yeast,,,IC50,1140 ± 200 nM

# Some of these lines once more:
SMILES,target or system,test,system,conditions,scale,quantity,result
C[S+]([O-])c1ccc(Nc2nc(OCC3CCCCC3)c3nc[nH]c3n2)cc1 (stereo not drawn),TYK2,,,benchmark set,,binding free energy,-10.9 kcal/mol
Cn1nnnc1Sc1ncnc2scc(-c3cccc(S(C)(=O)=O)c3)c12,PI5P4Kγ,,,10 µM,,remaining activity,4.9%
c1ccc2c(c1)CCCNC2c1c[nH]c2ccccc12 (stereo not drawn),P-glycoprotein (ABCB1),inhibitor,,20 µM,"baseline: untreated cells, higher = stronger inhibition",fluorescence activity ratio,2.6
